Measurements of several laboratories.
A part holds a random share of what one study measured. Changes are numbered by the printed parent chain.

Block 1 — technique: protein binding microarray; molecule type: double-stranded DNA, one strand shown; matrix: in vitro; concentration: not given; relative to: not given; direction: higher = stronger binding
Target: Histone acetyltransferase KAT6A, winged helix 2, GST fusion (KAT6A, Homo sapiens, UniProt Q92794, residues 85-181)
Notes: 8-mer, flanks averaged, mean of 2 arrays, mostly near background
Construct (chain): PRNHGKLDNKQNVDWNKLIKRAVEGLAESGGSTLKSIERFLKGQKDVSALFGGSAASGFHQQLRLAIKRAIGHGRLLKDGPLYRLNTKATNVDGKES
| Oligonucleotide | E-score |
| --- | --- |
| GCCGTCTA | 0.0115 |
| TAAACACA | 0.0351 |
| ATATTAGC | -0.0286 |
| ATCGGAAA | -0.0475 |
| CTAATGAG | -0.127 |
| AAATATCT | -0.0217 |
| AATTGGGC | -0.0196 |
| AACCAGTC | -0.0659 |
| CCGCTATC | 0.149 |
| GCATGCTA | -0.0644 |
| AATTCTAG | -0.0092 |
| ATTCCATC | 0.0827 |
| AACAATAA | 0.0822 |
| ATACTGTG | -0.164 |
| CCCTTTTA | -0.104 |
| AGGGAGCA | -0.0594 |
| TCCAATCA | 0.0622 |
| CTAAAAGA | -0.065 |
| GGGATGTA | -0.0697 |
| GTTTCCAA | -0.0185 |
| GACACACC | 0.054 |
| AAGTTGAT | -0.106 |
| AGACGGGC | 0.121 |
| GGCGCGCC | 0.277 |

Block 2 — target: CCNB1, cyclin fold, Cln2 fusion (human); technique: yeast growth competition, sequencing; matrix: yeast; notes: strong parent motif; relative to: not given; direction: higher = stronger binding
Starting sequence: BRCA2 docking peptide (human); PSIKRNLLNEFDR
| Substitution | normalised enrichment score |
| --- | --- |
| PSIPRNLLNEFDR [K4P] | 0.403 |
| PSIKRNPLNEFDR [L7P] | 0.208 |
| PSRKRNLLNEFDR [I3R] | 0.0515 |
| PSIKRNFLNEFDR [L7F] | -0.0126 |
| PSIKQNLLNEFDR [R5Q] | 0.295 |
| PSIKRNLLGEFDR [N9G] | 2.17 |
| PSIKLNLLNEFDR [R5L] | 0.383 |
| PDIKRNLLNEFDR [S2D] | 2.76 |
| PSIKRNLLNEFDN [R13N] | 3.11 |
| PSIKRGLLNEFDR [N6G] | 0.485 |
| PSIKRNLLNEFYR [D12Y] | 1.29 |
| PSIKRNLLNDFDR [E10D] | 3.31 |
| PSIKRNLLNEPDR [F11P] | -0.281 |
| PSIKRNLENEFDR [L8E] | 1.09 |
| PSIKRNVLNEFDR [L7V] | 0.72 |
| PSIKRNLYNEFDR [L8Y] | 1.61 |
| PSIKRNLPNEFDR [L8P] | -0.38 |
| PSIKRYLLNEFDR [N6Y] | 0.335 |
| PSIKRNLLNEKDR [F11K] | -0.312 |
| PSFKRNLLNEFDR [I3F] | 0.267 |
| PSIKRNLLNEFSR [D12S] | 1.8 |
| PSIDRNLLNEFDR [K4D] | 0.68 |
| PSIKRNLLNAFDR [E10A] | 0.577 |
| PSIKRSLLNEFDR [N6S] | 1.89 |
| PSISRNLLNEFDR [K4S] | 1.99 |

Block 3 — technique: DHFR PCA, dose-response; matrix: yeast; notes: Hill fit, not affinity; added: (+)-ABA, dose series; direction: lower = more sensitive
Target: ABI1, truncated, D143A, DHFR fusion (Arabidopsis thaliana, UniProt P49597)
Starting sequence: PYL1, truncated, DHFR fusion (Arabidopsis thaliana, UniProt Q8VZS8); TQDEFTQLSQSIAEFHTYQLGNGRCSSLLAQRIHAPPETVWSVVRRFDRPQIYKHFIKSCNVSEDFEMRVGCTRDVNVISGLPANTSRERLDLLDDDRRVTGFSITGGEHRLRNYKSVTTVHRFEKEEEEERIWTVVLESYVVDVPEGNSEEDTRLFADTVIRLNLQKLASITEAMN
| Substitution | ABA EC50 [nM] |
| --- | --- |
| T101F | 4680 |
| N77E | 3850 |
| R99W | 2460 |
| V78R | 685 |
| N77C | 5180 |
| N177S | 1330 |
| I133V | 2330 |
| N177K | 2850 |

Block 4 — technique: aptamer microarray, sandwich; molecule type: DNA with 2'F-ANA; matrix: in vitro; concentration: 200 nM; added: Cy3 exosite-II aptamer, 400 nM; direction: higher = stronger binding; oligonucleotide: GGTTGGTGTGGTTGG
Target: Prothrombin, mature alpha-thrombin (F2, Homo sapiens, UniProt P00734)
Notes: whole 15-mer aptamer, many near background
| Modification | mean fluorescence intensity [a.u.] |
| --- | --- |
| 2'F-ANA at 2 7 8 12 13 15 | 723 |
| 2'F-ANA at 1 2 6 11 12 13 14 15 | 65.8 |
| 2'F-ANA at 4 5 7 8 9 13 14 | 53.7 |
| 2'F-ANA at 2 4 7 9 11 14 15 | 88.2 |
| 2'F-ANA at 3 10 12 15 | 703 |
| 2'F-ANA at 1 3 4 6 8 9 10 11 12 15 | 74.2 |
| 2'F-ANA at 1 2 5 6 12 | 107 |
| 2'F-ANA at 3 4 5 12 | 281 |
| 2'F-ANA at 3 4 10 | 317 |
| 2'F-ANA at 1 2 4 7 9 10 12 14 15 | 55.4 |
| 2'F-ANA at 6 7 8 9 15 | 523 |
| 2'F-ANA at 1 2 5 6 8 9 11 13 | 50.7 |
| 2'F-ANA at 5 7 8 9 10 | 51 |
| 2'F-ANA at 3 4 5 6 9 11 14 15 | 58.1 |
| 2'F-ANA at 3 8 9 11 12 13 | 1170 |
| 2'F-ANA at 2 3 4 6 9 13 14 15 | 199 |
| 2'F-ANA at 1 3 4 6 7 8 | 276 |

Block 5 — technique: RNA Bind-n-Seq; molecule type: RNA; matrix: in vitro; concentration: 365 nM; relative to: no-protein control; direction: higher = stronger binding
Target: RNA binding protein fox-1 homolog 2, RRM domain, GST-SBP tag (RBFOX2, Homo sapiens, UniProt O43251-10, residues 100-194)
Notes: natural RNA segment, single round, ends assumed
Construct (chain): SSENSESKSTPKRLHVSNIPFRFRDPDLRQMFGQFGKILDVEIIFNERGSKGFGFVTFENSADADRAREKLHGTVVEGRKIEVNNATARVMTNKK
| Oligonucleotide | RBNS enrichment (R) |
| --- | --- |
| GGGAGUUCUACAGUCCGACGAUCACAUAUGAAAAGUGAAAGUUGUGAGUUGUUUUCCUCUUAUUUAAACAUUGGCCUAUUAUAAUCUGUGUUGGUUAUUUUUCUCCUGUAAGCAUCCUGAUUUUUCUGUAGGAUGGAAUUCUCGGGUGCCAA | 0.92 |
| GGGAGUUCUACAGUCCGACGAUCUCCCGGGCAGCAAAAUACAGCCUAAGGUUUGUAAACAUCAAUUCUAUCUCAGUUCAUCAGAGGGCCUGAGAAGCUGCGGGGCAGUGUAAAGUAAAGUAUGCUGGGCUGGUUGGAAUUCUCGGGUGCCAA | 0.804 |
| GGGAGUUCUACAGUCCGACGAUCUCGACUCUAAAAGAUUUGCCAAAUAACAAAAGCAUACAAUGCAUACUGUUGGAGAACAAGAAUGCUACUGUAUUUUACAUCUUUAUUUCUUGGUGAAACAAAAGUUUUAAUGGAAUUCUCGGGUGCCAA | 0.356 |
| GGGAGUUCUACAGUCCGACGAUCUUCUUGAUACCACCCAGAAAGUCUGCUACAUACCUGAGUUAGCCACUAGAUUGCCUGUCCCGACUCAUUGAAGUGCUCCCCAGGGAGCCACUUCUGAUUUGCCAUGGUUGUGGAAUUCUCGGGUGCCAA | 0.409 |
| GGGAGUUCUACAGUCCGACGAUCAUUGUAUAGUAGUUUAGUAACUAUGAAGACUGGUUUGUAAGGAAGGAAACGUUUACUACUAAGGUUAGGCCUGCAGUUGCUCUGGAACAUUCCAUGGAGAAUGCAUUCAUUGGAAUUCUCGGGUGCCAA | 0.487 |
| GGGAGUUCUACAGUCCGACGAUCCGGUGUAAUUGCAUUAUAGCUAUGUGCCUUGUGGUAAGCACUAUGUACUCUCUGCAUUGUCCAAAUGUCUUACUUUAAGGUGUUUCUUCUGUCUUUUCGACUAAGUAGUAUGGAAUUCUCGGGUGCCAA | 0.541 |
| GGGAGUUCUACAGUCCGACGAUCCUGGUAAUGAGAUUGUAAAUCCAUUUCCUGCGUGUGUUCUCCGCAGGCUUGCCUGAGUGUGUGGGGUGCGCAGGCGCGUGCCUGUCUUUUUGUACUGUAACUACCUCAUGUGGAAUUCUCGGGUGCCAA | 0.305 |
| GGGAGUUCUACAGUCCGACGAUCAGGAGGCUCUGCUGGCCGCAGAGAACACAGGGAUGGGAGGGUCCCUAGCCUUCGGGCACCUCCAGGGCCAGAGAGCAGGCUCAGAGCAGCUAGUGUGGAGCUCAGCAUCCUGGAAUUCUCGGGUGCCAA | 1.5 |

Repeated from above (block 2):
| Substitution | normalised enrichment score |
| --- | --- |
| PSIPRNLLNEFDR [K4P] | 0.403 |
| PSIKRNPLNEFDR [L7P] | 0.208 |
| PSRKRNLLNEFDR [I3R] | 0.0515 |
| PSIKRNFLNEFDR [L7F] | -0.0126 |
| PSIKQNLLNEFDR [R5Q] | 0.295 |
| PSIKRNLLGEFDR [N9G] | 2.17 |
| PSIKLNLLNEFDR [R5L] | 0.383 |
